# Measured values collected from several papers.
# A part holds a random share of what one study measured.

# Study 1
# Target: Sal-like protein 4, full length isoform A (SALL4, Homo sapiens, UniProt Q9UJQ4, residues 1-1053)
# Chain of UniProt Q9UJQ4 (whole entry, looked up): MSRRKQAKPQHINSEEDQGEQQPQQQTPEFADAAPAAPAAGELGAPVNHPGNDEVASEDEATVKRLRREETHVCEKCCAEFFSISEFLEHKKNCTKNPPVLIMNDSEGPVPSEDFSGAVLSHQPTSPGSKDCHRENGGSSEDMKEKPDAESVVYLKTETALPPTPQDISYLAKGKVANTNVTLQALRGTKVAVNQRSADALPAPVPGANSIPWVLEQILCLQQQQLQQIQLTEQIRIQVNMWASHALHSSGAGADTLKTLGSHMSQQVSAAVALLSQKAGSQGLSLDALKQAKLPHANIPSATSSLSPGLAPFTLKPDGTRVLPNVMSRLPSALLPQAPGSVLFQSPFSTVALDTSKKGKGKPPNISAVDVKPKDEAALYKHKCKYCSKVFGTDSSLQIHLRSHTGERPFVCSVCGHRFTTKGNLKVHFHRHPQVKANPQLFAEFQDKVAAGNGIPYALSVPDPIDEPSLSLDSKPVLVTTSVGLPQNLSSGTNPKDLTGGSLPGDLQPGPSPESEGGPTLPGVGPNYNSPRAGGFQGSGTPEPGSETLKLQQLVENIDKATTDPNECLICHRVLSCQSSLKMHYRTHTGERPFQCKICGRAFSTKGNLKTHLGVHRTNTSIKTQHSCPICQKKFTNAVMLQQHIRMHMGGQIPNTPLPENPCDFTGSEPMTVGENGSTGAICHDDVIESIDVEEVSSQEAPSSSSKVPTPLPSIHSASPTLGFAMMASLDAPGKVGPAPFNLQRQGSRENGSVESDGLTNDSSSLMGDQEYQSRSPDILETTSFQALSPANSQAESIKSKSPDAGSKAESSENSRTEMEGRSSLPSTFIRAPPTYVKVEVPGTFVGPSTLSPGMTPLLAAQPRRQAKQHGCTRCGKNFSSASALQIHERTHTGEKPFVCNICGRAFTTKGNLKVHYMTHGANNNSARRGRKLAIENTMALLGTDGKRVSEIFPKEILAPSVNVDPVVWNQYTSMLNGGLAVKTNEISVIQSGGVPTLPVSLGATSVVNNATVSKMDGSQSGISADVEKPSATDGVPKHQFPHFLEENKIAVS
# Method: universal PBM
# Form: double-stranded DNA, one strand shown
# Medium: in vitro
# Tested at: 600 nM
# Setting: 8-mer, flanks averaged, mean of replicates
# Reading: higher = stronger binding
Strand,E-score
GCGCGTTA,0.008
GGATCCTA,-0.107
CCAGTTAA,0.201
ATCTTCGG,0.145
CCTGTACG,-0.141
AATGAAGC,0.076
CTACAGGC,-0.111
CAAGTTAG,-0.00485
CAGACATC,-0.115
GGGTATCA,-0.0591
ATTCGGTG,0.00169
AAATCAGC,0.12
AATCGTAA,0.289
CCGCTTCG,-0.335
CCTTGACG,-0.248
AGTCAGGC,0.00092
CAGGGGCC,-0.368
ATGGAATC,0.158
CAGGAGGA,-0.22
AGATCCCA,-0.0654
TCAAAACA,0.298
GCGTATAA,0.194
CAGTCATG,-0.188
AACGGCCC,-0.245
AAGTGGGG,-0.0992

# Study 2
# Target: Histone acetyltransferase KAT6A, winged helix 1, GST fusion (KAT6A, Homo sapiens, UniProt Q92794, residues 1-85)
# Method: protein binding microarray
# Form: double-stranded DNA, one strand shown
# Medium: in vitro
# Tested at: not given
# Setting: 8-mer, flanks averaged, mean of 2 arrays, mostly near background
# Reference: not given
# Reading: higher = stronger binding
# Construct (chain): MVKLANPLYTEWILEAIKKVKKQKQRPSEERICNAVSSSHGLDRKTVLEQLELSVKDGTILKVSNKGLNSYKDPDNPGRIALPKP
Strand,E-score
GCACTCTA,-0.0402
CGCAAGAA,0.195
AAATGCGG,0.127
CAGGACGC,0.0641
GACCAGTA,-0.0145
ACGGGCGG,0.426
ATCCTTTC,-0.104
ATTCATAC,0.016
ACCCGTAG,0.289
GGCGGAAC,0.346
AGGGCGAC,0.152
GGGAAGTA,-0.014
CGAAAACA,0.0432
AGCAAGAA,-0.113
GGATAGAA,-0.0174
ACTCTTAG,-0.168
GAAATTAC,-0.0664
CGCCTGTC,0.147
ATCGCGCC,0.385

# Study 3
# Target: RNA binding protein fox-1 homolog 2, RRM domain, GST-SBP tag (RBFOX2, Homo sapiens, UniProt O43251-10, residues 100-194)
# Method: RNA Bind-n-Seq
# Form: RNA
# Medium: in vitro
# Tested at: 365 nM
# Setting: natural RNA segment, single round, ends assumed
# Reference: no-protein control
# Reading: higher = stronger binding
# Shared flanks, not repeated: GGGAGUUCUACAGUCCGACGAUC … UGGAAUUCUCGGGUGCCAA
# Residues (chain): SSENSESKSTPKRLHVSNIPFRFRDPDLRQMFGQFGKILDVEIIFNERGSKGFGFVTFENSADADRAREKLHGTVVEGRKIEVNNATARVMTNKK
Strand,RBNS enrichment (R)
UCCUUUUGCAGGAGUGGCUGUACCUGCAGAAAGCCCAGGGGUCCACAGUACAGUGCAGGAGAAGCAGCUGAGUUGGCCUGGUCUAAGGAUACCCCCUAGCAAACUUGGCC,0.319
CCUGCCCGUGGGCUUGGGGAUGGGAGGCCCCUCAGGUCCUGGAGGUGGGGCGGGAACACACAAAUCCAGCCCCCUUUCUCCUGGCUCCCUGCUCUGGCCCUGCCCCAGAG,0.546
GGGCUGUUAAAUCGGAAAGGAUGUGGCUUCAGUGCCCUCAGGAACCCUUAGGCUCCAAAAAUUUGCCUGCCUUUGAGAGAACAACAAACAGGUCUUUUCUCUCUCCUUUA,0.397
CCUGUGUAGUGUGUACAGAGUGGGUAGGGACUAAACACAGGCCUAGCGUCUAUGAGUCUGUAUUCCUGCUCAGUCAUCAACUUGUGUUCCUAUUGAACAUUUGAUCAGAA,0.248
UGGAUUGCCUUACUUCUCUUGCCUUAAAUAUAUCCCAUAUAUUUAAUAUGUCAAAAAGGGCUUGAGGUGAAUUUCAUUAAAUGGAAUAAUAUGAUGCCACUUUGCAGCUA,0.389
AACAGUUGUAGGGAGACCCAGCAGCACCUUUCCUCCACACACCUUCAUUUUGAUGUUCGGGUUUUUGUGUUAAGUUAAUCUGUACAUUCUGUUUGCCAUUGUUACUUGUA,0.711
UAACCUAAUUUGUCCAAAUCACCCCAAAACCACCAUCUCUGACGUAAGCUUCCAUGCGACAGCCUGAUCCGUUUCCCUGGACAGGUCUCUUUCCUGGAAUGCAGCCCAGG,0.811
CCCUUUCCCUGGGGCCAGAUCAGGACACAGCACAGGGCAGGAGGCCCUGCCUAGCUUAAAGUAUAGUCAUGAGAUGGAGUUGGGAGCACUAUACUGGUCACUUACCACCU,0.503

# Study 4
# Target: RING finger protein unkempt homolog, zinc fingers 1-6, GST-SBP tag (UNK, Homo sapiens, UniProt Q9C0B0, residues 30-357)
# Chain of UniProt Q9C0B0 (30-357, looked up): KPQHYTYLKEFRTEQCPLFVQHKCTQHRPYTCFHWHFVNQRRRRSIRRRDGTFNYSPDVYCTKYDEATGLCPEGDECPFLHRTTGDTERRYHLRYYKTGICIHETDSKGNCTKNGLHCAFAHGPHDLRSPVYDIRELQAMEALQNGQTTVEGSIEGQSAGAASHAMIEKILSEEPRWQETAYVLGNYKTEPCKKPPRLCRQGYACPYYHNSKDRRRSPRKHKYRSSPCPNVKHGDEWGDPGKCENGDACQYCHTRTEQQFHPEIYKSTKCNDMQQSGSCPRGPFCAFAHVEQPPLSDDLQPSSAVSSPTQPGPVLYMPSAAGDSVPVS
# Method: RNA Bind-n-Seq
# Form: RNA
# Medium: in vitro
# Tested at: not given
# Setting: RNA with constant flanks, human and mouse sites, ends assumed
# Reference: input RNA pool
# Reading: higher = stronger binding
# Shared flanks, not repeated: GGGAGUUCUACAGUCCGACGAUC … CAACAGAGGAUUGAGCAUCA
Strand,bound/input enrichment [ratio]
CUAUUCGACUUAGGCUCCAACGUAACUGCAAUUUAAUGUUGGUAGUAUAGCAAAUUAUGAAUAGAUUUGUUGUAUGUUUUGAAGUCACAUGCUUACAUGCUUAAAUCUGGAUAUCAGAAU,0.893
AGCAAUCCAGAUCUCUAUGGCCCCUUUUGGAUAUGUGCCACGUUGGUCUUUGCCAUAGCAAUUAGUGGGAAUCUUUCCAACUUCUUGAUCCAUCUGGGAGAGAAGACGUACCAUUAUGUG,0.155
GUCUAUCUUAAUCUGGUGCUGGACUAUGUUCCGGAAACAGUAUACAGAGUUGCCAGACACUAUAGUCGAGCCAAACAGACGCUCCCUGUGAUUUAUGUCAAGUUGUAUAUGUAUCAGCUG,0.13
UUUCACAUUUGGUGAGUGGGGCAGCAUUUCCUUCUCCCACUGCUGCUGAGAUGGCAGAAAUUAGUCGAAUUCAGUAUGAAAUGGAAUACACCGAAGGUAUUAGUCAGCGAAUGAGGGUCC,2.44
AAAGGUGGACUGAAACCCCUGAUUCCUACCUUGGAAAAAAACAAAAGCAGCAGCAGAGGCAUCCAGACCCUGCUUGAGAAGCUGACUGCGUAGGCAGCAGGAUGAGCAAGCGGGAACCCG,0.217
AGGGUUGAUGUUCUGAAGAACCACUUGGUGAAAGAAGGUCGAGUAGAUGAAGAAAUUGCGCUUAGAAUUAUCAAUGAGGGUGCUGCCAUCCUUCGGAGAGAGAAAACCAUGAUAGAAGUA,14.5
CGACGCAAUAAGGAUGUGUUGGCUUGGGUUAAAAAACGCAGAAGAACUAUUCGUCGAGAAGAUUUGAUCAGCUUCCUGUGUGGAAAAGUUCCUCCACCACGAAACUCUAGAGCUCCCCCA,0.231
AGUGAUAUUCAUUUGGCAGAACAUCAUAAACAGGUGUUAUAUGAUGGGAAACUUGCAAGUAGCAUUGCCUUUACAUAUAAUGCUAAGGCCACUGAUGCUCAGCUCUGCCUGGAAUCAUCA,0.203

# Some of these lines once more (study 4):
Strand,bound/input enrichment [ratio]
UUUCACAUUUGGUGAGUGGGGCAGCAUUUCCUUCUCCCACUGCUGCUGAGAUGGCAGAAAUUAGUCGAAUUCAGUAUGAAAUGGAAUACACCGAAGGUAUUAGUCAGCGAAUGAGGGUCC,2.44
AAAGGUGGACUGAAACCCCUGAUUCCUACCUUGGAAAAAAACAAAAGCAGCAGCAGAGGCAUCCAGACCCUGCUUGAGAAGCUGACUGCGUAGGCAGCAGGAUGAGCAAGCGGGAACCCG,0.217
AGGGUUGAUGUUCUGAAGAACCACUUGGUGAAAGAAGGUCGAGUAGAUGAAGAAAUUGCGCUUAGAAUUAUCAAUGAGGGUGCUGCCAUCCUUCGGAGAGAGAAAACCAUGAUAGAAGUA,14.5
CGACGCAAUAAGGAUGUGUUGGCUUGGGUUAAAAAACGCAGAAGAACUAUUCGUCGAGAAGAUUUGAUCAGCUUCCUGUGUGGAAAAGUUCCUCCACCACGAAACUCUAGAGCUCCCCCA,0.231
